Measured values gathered from unrelated publications.
Protocols differ between the studies behind these lines.

Compound | assay | test system | setting | quantity | result
CN1CC[C@@H](c2c(O)cc(O)c3c(=O)cc(-c4ccc(C(F)(F)F)cc4Cl)oc23)[C@@H]1CO | refers to: Constipation | B-cell malignancies | oral, 200 mg, intermittent dosing | patients with adverse event | 0%
O=C1Nc2cc3[nH]nc(-c4ccncc4)c3cc2CN1Cc1ccccc1 | CTCAE v4.03 | advanced solid tumour patients | intravenous, 0.45 mg/kg, schedules 1/2 | patients with constipation | 0%
COc1nnc2ccc(N3CCC(c4ccc(OCCN5CCN(C)C(=O)[C@H]5C)cc4)CC3)nn12 | refers to: anemia | patients with solid tumours or lymphoma | oral, dose not given, grade at least 3, treatment-emergent | patients with adverse event | 8.8%
COc1cc2c(Oc3ccc4[nH]c(C)cc4c3F)ccnc2cc1OCC1(N)CC1 |  | paediatric refractory sarcoma patients | dose not given | patients with grade 3 TBIL elevation | 2.9%
C=CC(=O)N1CC[C@H](n2nc(C#Cc3cc(OC)cc(OC)c3)c3c(N)ncnc32)C1 |  | hyperphosphataemia patients | oral, once daily, grade ≥3, lanthanum carbonate users | patients with ADR | 16.7%
N[C@@H]1c2ccccc2OC12CCN(c1cnc3c(N4CCCc5ncccc54)n[nH]c3n1)CC2 |  | advanced solid tumour patients | oral, 75 mg once daily | patients with grade ≥3 TEAE | 71.4%
CCNCCCNC/C=C\CNCCCNCC |  | advanced refractory solid tumour patients | intravenous, dose not given, anorexia | patients with treatment-related TEAE | 21.7%
Nc1nc2cc(-c3ccc4ncc(C(=O)N5CCOCC5)n4c3)ccc2o1 | refers to: Cough, any cause, all grades | patients with advanced solid tumours | dose not given | patients with adverse events | 22%
CC(=O)c1c(C)c2cnc(Nc3ccc(C4CCN(CCS(C)(=O)=O)CC4)cn3)nc2n(C2CCCC2)c1=O |  | HR+/HER2- advanced breast cancer patients | oral, dose not given, all grades, dose escalation, sample B patients | patients with vomiting | 21.1%
C=CCNc1c(O)cc2c(O)c1C[C@@H](C)C[C@H](OC)[C@H](O)[C@@H](C)/C=C(\C)[C@H](OC(N)=O)[C@@H](OC)/C=C\C=C(/C)C(=O)N2 |  | unresectable or metastatic sarcoma | intravenous, 225 mg/m^2, grade 3-4 lab change | patients with ALP increase | 0%
